Experimental data collected from several papers.
A part holds a random share of what one study measured.

Sample 1 — method: RNA Bind-n-Seq; molecule type: RNA; sample: in vitro; tested at: 365 nM; relative to: no-protein control; reading: higher = stronger binding
Target: RNA binding protein fox-1 homolog 2, RRM domain, GST-SBP tag (RBFOX2, Homo sapiens, UniProt O43251-10, residues 100-194)
Notes: natural RNA segment, single round, ends assumed
Residues (chain): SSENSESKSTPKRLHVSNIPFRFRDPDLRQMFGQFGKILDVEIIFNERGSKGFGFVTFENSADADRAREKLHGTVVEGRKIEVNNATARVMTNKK
Under “RBNS enrichment (R)”, `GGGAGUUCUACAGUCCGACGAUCCCCAAUUAUCUUCCAAGAUAGGAGAUAUUUCCCAUCCCCUUCCUUUGUAAAUAUCUCAUCUCCCACUGGAGAGCCCAGGAGCCUAUUCCUGGCAUGGAUGUUCUGUCCACUGGAAUUCUCGGGUGCCAA` is recorded as 0.38.
For `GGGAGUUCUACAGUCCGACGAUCUCGAGCUGUCUUUUAACUUUUGUAUGUGUUUUAUCAGAAUUUGCUGGACUAUGCUGGCAAGGACUUUGUUUACGAUCAAAUUGUACUAGUGUCUGCAGGGUUUGUCAGUAUGGAAUUCUCGGGUGCCAA`, “RBNS enrichment (R)” read 0.791.
`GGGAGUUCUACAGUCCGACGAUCGCUGGGAAGAGAAGAGGGCCCAGCCCAGAGCCACCUGGAUCUAUCCCUGCGGCCUCCACACCUGAACUUGCCUAACUAACUGGCAGGGGAGACAGGAGCCUAGCGGAGCCUGGAAUUCUCGGGUGCCAA`: “RBNS enrichment (R)” 0.178.
`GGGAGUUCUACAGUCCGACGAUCACGUGUUGUGUUUUCUGAUGUUGACUUGAGUUCCAUUUAGUAGCAUCUCUUCCUUCCAUGUCUUGAUGUUAUGCAGGAAGUACAGACGUACUUUAAAUUUUUGUUAUGAAUGGAAUUCUCGGGUGCCAA`: “RBNS enrichment (R)” 2.13.
Under “RBNS enrichment (R)”, `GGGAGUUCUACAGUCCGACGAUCCAAAAACUAUAGAGCCUGUCAGCACCAAAGCUGACAGAAGUUAUACCUUACUCCUUUCCUUUCCCCUGAACAAACCUGCUAAUCCCACUAAUUCAGGAAUUUGAGUAGAGUGGAAUUCUCGGGUGCCAA` is recorded as 0.48.
For `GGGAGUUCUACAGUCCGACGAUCCUGACCACCGAAACGUGCAGGCAUUCUCACUCACACUGGGCAGCCCGCUGUCGGGUCUCUCUAGGCCUAUGAACCACAAAGCAGGGAAGUGGGCACGUUCUCUCGGGGUGUGGAAUUCUCGGGUGCCAA`, “RBNS enrichment (R)” read 0.331.
`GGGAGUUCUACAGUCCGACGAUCCAUUUGUUCACAGGAGUUUUUGGUGCGGGGUGGGAAGGAUGGAAGGCCUUGGAUUUAUAUUGCACUUCAUAGACCCCUAGGCUGCUGUGCGGUGGGACUCCACAUGCGCCUGGAAUUCUCGGGUGCCAA` — result for “RBNS enrichment (R)”: 3.19.
`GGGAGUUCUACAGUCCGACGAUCAUAUGGAAAAGGAAAAAAAUAUCUCACAAGUUCUUUGGGAACUUGUUUCAAGCCAAAAACUCUCAAGACAGAAAAUUGCACCUCAGCUGGGUUGAUUUCAAAAUGCCAGCUGGAAUUCUCGGGUGCCAA` — result for “RBNS enrichment (R)”: 0.899.

Sample 2 — method: protein binding microarray; molecule type: double-stranded DNA, one strand shown; sample: in vitro; tested at: not given; relative to: not given; reading: higher = stronger binding
Target: Histone acetyltransferase KAT6A, winged helix 2, GST fusion (KAT6A, Homo sapiens, UniProt Q92794, residues 85-181)
Notes: 8-mer, flanks averaged, mean of 2 arrays, mostly near background
Residues (chain): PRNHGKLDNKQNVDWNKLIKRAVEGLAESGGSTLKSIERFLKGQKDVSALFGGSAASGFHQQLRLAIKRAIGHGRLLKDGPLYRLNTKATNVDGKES
The E-score of `CACGATGC` is reported as -0.00596.
For `CTTCATTA`, the E-score was 0.215.
For `GATTCCGC`, the E-score was -0.00619.
With `CGGCGTAG` the E-score was -0.0254.
`ATGGGGCA` has an E-score of -0.00941.
`CGGTATAC` has an E-score of -0.111.
With `AGCTGCGG` the E-score was 0.159.
`ACGAGTCA` gave an E-score of -0.0995.
`GTTGGAGA` gave an E-score of 0.118.
`ACGTTAGA` gave an E-score of -0.0984.
For `AAGTCCGA`, the E-score was -0.171.
The E-score of `TAGAACGA` is reported as 0.0207.
With `GCAAGCAC` the E-score was -0.0982.
`AACTACAC` has an E-score of 0.00938.
The E-score of `CAACCCAA` is reported as -0.0972.
The E-score of `CAGTTGAA` is reported as -0.192.
The E-score of `ACACGTAG` is reported as -0.275.
`ACCCGGCT` has an E-score of 0.257.
With `AGGCGTAT` the E-score was 0.124.
`CGCGCACG` has an E-score of 0.0875.
With `GTATGGGA` the E-score was -0.129.
With `CTAGTTTA` the E-score was -0.0235.
With `TAGTCCAA` the E-score was -0.0906.

Sample 3 — method: competition protein-binding microarray; molecule type: double-stranded DNA, one strand shown; sample: in vitro; tested at: 2 µM; together with: Pho4 competitor, 0.05 µM; reading: higher = stronger binding
Target: Centromere-binding protein 1, full length, His-tagged (CBF1, Saccharomyces cerevisiae, UniProt P17106, residues 1-351)
Sequence of UniProt P17106 (whole entry, looked up): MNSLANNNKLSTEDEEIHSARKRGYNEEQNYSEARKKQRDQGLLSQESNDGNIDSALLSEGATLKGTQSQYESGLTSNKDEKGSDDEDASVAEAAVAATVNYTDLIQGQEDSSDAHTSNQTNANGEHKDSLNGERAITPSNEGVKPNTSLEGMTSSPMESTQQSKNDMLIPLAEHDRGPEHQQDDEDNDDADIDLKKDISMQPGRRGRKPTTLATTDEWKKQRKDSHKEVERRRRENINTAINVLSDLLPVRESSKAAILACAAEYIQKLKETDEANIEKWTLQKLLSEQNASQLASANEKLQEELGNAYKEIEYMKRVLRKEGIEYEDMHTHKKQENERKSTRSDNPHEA
Notes: whole 60-bp probe, lowest competitor level
With `GCATACACATACACATTCGTGCAAACATTCATTTATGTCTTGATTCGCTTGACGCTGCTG` the fluorescence intensity was 96.1 a.u.
For `CACTTGAAAACGGTGAACGTGGTCGTATACCTTCGAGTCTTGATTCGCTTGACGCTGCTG`, the fluorescence intensity was 98.6 a.u.
For `CATTCTGTGAACCATCACGTGGACCAATTATATTACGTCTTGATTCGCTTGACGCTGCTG`, the fluorescence intensity was 3090 a.u.
With `AAAGCGGTAATTTGCTGGGTGGGTGCAGATATCTATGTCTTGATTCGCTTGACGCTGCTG` the fluorescence intensity was 69.3 a.u.
`AAAGCGGTAATTTGATTCGTGGGTGCAGATATCTATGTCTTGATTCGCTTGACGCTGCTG` gave a fluorescence intensity of 75.7 a.u.
`TTACCTTGGCGCCATCACGTGGCAAAATGGAAGCAAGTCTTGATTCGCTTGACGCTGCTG` gave a fluorescence intensity of 3310 a.u.
For `TGAAATAGATATTAGCACGTGTCGGGGAGAGAAGAAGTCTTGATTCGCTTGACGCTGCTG`, the fluorescence intensity was 1870 a.u.
`AAATTAGTAACGCATAACGTGTTTTCTGCGACAAGCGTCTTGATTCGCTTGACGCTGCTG` has a fluorescence intensity of 119 a.u.
`TCTGGATATTCACCACACCTGATTGGGAAGACTCATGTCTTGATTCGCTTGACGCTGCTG` has a fluorescence intensity of 101 a.u.
With `GTCTTGTCTCATTGTCACCTTACTTTCCCCACTTCAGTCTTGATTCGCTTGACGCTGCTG` the fluorescence intensity was 76.2 a.u.
With `AAGAGACAAAAGGAACACGTGAAATAAGAAAGAAAAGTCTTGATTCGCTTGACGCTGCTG` the fluorescence intensity was 1560 a.u.
The fluorescence intensity of `CGGGGTTAAGTTTGTCACATGACTTGCTTGCAGCAGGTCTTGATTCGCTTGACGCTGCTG` is reported as 1870 a.u.
With `CGGGCTTGTCTCAGGCTCGTGTGGACCGCACTGTAAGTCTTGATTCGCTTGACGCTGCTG` the fluorescence intensity was 51.1 a.u.
`TCTCTTCTTCATCACCACGATGTATCTTTTGTTTTGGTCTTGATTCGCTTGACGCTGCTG` has a fluorescence intensity of 79.1 a.u.
The fluorescence intensity of `GAGAGGACAAGGGATGACATGGCCGACGTTATAAGGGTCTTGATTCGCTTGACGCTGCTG` is reported as 56.6 a.u.
For `CTTTCCCGATCTTGTCACTCGACTTTAGCACATTTGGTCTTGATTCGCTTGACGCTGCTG`, the fluorescence intensity was 81.5 a.u.

Sample 4 — method: protein-binding microarray; molecule type: double-stranded DNA, one strand shown; sample: in vitro; tested at: 2200 nM top; notes: 60-bp whole probe; together with: salmon DNA 0.4 mg/ml; relative to: random background probes; reading: higher = stronger binding; constant ends, left off below: GCCTAGCAC … GTCTTGATTCGCTTGACGCTGCTG
Target: Interferon regulatory factor 7, full length, phosphomimetic (IRF7, Homo sapiens, UniProt Q92985, residues 1-503, S471D/S472D/S475D/S476D/S477D/S483D/S484D/S487D)
Sequence of UniProt Q92985 (whole entry, unmodified, looked up): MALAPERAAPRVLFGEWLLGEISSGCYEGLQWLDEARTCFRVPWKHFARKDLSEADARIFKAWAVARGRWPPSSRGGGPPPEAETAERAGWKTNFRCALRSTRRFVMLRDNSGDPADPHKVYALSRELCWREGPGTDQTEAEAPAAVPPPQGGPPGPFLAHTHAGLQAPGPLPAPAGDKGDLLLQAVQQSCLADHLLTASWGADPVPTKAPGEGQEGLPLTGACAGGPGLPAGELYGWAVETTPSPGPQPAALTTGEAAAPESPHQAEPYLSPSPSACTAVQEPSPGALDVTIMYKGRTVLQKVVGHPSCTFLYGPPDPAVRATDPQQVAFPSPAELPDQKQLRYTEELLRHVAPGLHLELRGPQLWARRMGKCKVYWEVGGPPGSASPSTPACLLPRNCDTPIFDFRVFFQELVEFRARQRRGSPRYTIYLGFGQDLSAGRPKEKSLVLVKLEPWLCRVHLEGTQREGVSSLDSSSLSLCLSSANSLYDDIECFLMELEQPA
For `ACGTAGAAGGAAGAAGCACGGTGCTAG`, “fitted relative affinity” read -0.545 z-score.
Under “fitted relative affinity”, `TTAGATTTTAGTATCGATTAGTGCTAG` is recorded as 0.246 z-score.
For `TCATTTTTCATCATTGCACTGTGCTAG`, “fitted relative affinity” read 2.13 z-score.
`GTAGATTTCGGGTTTCGATTAGTGCTA` — result for “fitted relative affinity”: 6.67 z-score.
`GACGATACCAGTATCGAGACGTGCTAG` — result for “fitted relative affinity”: 0.405 z-score.
`TTGTTTTTTTCTATATGCAAGTGCTAG`: “fitted relative affinity” 2.61 z-score.
For `GACGTTATCGGGTTTCGGGACGTGCTA`, “fitted relative affinity” read 2.34 z-score.
For `GACGATTTCGGGACTGGACACGTGCTA`, “fitted relative affinity” read 1.32 z-score.
`ATAGGACTGCTTATCCTTTAGTGCTAG`: “fitted relative affinity” 0.564 z-score.
Under “fitted relative affinity”, `GACCATATCAGTATCGAGACGTGCTAG` is recorded as 0.708 z-score.
`TCAGGAAACCGGAAAGGCACTGTGCTA`: “fitted relative affinity” -0.961 z-score.
For `TTAGATTTCAGTCGCGATTAGTGCTAG`, “fitted relative affinity” read 0.335 z-score.
`GACGGTTCCCTACTGCTGACGTGCTAG`: “fitted relative affinity” 1.17 z-score.
`TTAGGACTGCCTATCCTTTAGTGCTAG` — result for “fitted relative affinity”: 0.342 z-score.
`TTTGACATCTTCATCAACTAGTGCTAG`: “fitted relative affinity” 0.79 z-score.
`GACTGTCTCCTTATCCTGACGTGCTAG` — result for “fitted relative affinity”: 1.56 z-score.

Some of these lines once more (sample 2):
`GTTGGAGA` gave an E-score of 0.118.
`ACGTTAGA` gave an E-score of -0.0984.
For `AAGTCCGA`, the E-score was -0.171.
The E-score of `TAGAACGA` is reported as 0.0207.
With `GCAAGCAC` the E-score was -0.0982.
`AACTACAC` has an E-score of 0.00938.
The E-score of `CAACCCAA` is reported as -0.0972.
The E-score of `CAGTTGAA` is reported as -0.192.
The E-score of `ACACGTAG` is reported as -0.275.
`ACCCGGCT` has an E-score of 0.257.
